# Assay results from different studies.
# Protocols differ between the studies behind these lines. Values joined by “and” are separate records of one study, mostly repeats; a detail may differ. ± gives the spread as reported.
# Chain of UniProt P20813 (whole entry, looked up): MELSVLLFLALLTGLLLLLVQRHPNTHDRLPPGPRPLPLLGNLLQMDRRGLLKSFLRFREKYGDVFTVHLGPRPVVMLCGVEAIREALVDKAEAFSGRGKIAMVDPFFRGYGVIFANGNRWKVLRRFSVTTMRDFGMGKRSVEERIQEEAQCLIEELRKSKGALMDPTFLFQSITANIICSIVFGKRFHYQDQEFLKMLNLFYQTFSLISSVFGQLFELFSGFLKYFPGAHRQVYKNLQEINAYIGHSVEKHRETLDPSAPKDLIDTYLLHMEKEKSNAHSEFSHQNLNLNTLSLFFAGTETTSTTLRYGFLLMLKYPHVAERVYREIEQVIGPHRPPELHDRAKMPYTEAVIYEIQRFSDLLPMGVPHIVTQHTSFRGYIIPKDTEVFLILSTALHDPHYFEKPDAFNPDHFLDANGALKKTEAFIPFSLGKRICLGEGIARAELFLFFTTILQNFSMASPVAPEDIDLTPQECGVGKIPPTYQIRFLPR
# Chain of UniProt P08684 (whole entry, looked up): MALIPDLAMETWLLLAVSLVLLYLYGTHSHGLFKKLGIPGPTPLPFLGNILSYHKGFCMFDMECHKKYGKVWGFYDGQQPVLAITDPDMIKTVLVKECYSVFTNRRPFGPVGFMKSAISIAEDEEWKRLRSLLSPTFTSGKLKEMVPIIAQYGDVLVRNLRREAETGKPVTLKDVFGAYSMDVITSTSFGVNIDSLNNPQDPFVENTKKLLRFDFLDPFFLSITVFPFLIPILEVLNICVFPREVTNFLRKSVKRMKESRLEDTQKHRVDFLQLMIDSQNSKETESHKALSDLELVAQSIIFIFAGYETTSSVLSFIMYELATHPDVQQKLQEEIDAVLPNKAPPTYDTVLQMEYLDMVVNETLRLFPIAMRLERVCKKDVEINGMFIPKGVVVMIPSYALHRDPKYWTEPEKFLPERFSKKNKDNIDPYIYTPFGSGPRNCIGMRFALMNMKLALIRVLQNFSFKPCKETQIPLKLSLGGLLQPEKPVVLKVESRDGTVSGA
# Chain of UniProt P20815 (whole entry, looked up): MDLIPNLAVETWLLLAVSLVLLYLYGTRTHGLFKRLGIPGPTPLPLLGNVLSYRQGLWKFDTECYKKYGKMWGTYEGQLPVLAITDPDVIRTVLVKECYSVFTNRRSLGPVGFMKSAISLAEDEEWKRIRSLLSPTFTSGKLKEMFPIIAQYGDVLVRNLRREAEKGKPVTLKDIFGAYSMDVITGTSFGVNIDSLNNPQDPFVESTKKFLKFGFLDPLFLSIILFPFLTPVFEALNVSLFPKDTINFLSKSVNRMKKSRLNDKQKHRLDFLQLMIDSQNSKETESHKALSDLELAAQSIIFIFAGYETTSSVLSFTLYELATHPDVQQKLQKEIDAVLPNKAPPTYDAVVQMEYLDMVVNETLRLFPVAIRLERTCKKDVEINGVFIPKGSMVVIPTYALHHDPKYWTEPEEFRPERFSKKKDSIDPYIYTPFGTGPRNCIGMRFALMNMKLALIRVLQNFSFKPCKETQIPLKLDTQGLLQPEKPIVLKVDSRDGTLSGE
Compound,tested on,test,system,conditions,how to read,quantity,result
COc1cccc(OC)c1-c1cc(C(=O)NC2(C(=O)O)C3CC4CC(C3)CC2C4)nn1-c1ccc(C(=O)N(C)CCOCCN(C)C(=O)[C@H](CCCCNC(=O)[C@H](CC(C)C)NC(=O)C2OC2C(=O)O)NC(=O)CN2CCN(CC(=O)[O-])CCN(CC(=O)[O-])CCN(CC(=O)[O-])CC2)cc1C(C)C.[177Lu+3] (mixture of isomers),HT-29 tumour model,,"host not given, blood","7 days, tumour-bearing",,tracer uptake,0.8 %ID/g
O=C(O)CCCOc1ccc(O)cc1-c1cc(-c2ccccc2C(F)(F)F)n(-c2ccccc2)n1,human iPSC-derived cardiomyocytes,,,0.2 µM,,beat rate,45.3 ± 2.6 min⁻¹
C=CC(=O)Nc1cc(Nc2nccc(-c3cn(C)c4ccccc34)n2)c(OCC(F)(F)F)nc1N(C)CCNC,"Cytochrome P450 3A5 (CYP3A5, Homo sapiens, UniProt P20815)",substrate,,"3 µM, 60 min, 3A5 isoform, liver abundance-normalized",,contribution to metabolite formation,0.444%
Nc1nc2cc(C(=O)c3ccc(F)cc3)ccc2[nH]1,Salmonella typhimurium,Ames preincubation test,TA98,"312.5 µg per plate, 3 days, without S9",,revertants,18 revertants per plate
CC(C)OCCOCc1ccc(OCC(O)CN(N=O)C(C)C)cc1 (centres unmarked),Salmonella typhimurium,Ames test,TA98,"5 µg/plate, 30 % rat S9",relative to: solvent control,revertant fold increase,0.9 fold
C=C(NC(=O)c1csc(-c2nc3c(cc2O)-c2nc(cs2)C(=O)NC(C(C)O)C(=O)NC(=C(C)OC)c2nc(cs2)C(=O)NC2c4nc(cs4)C(=O)NC(COC(=O)c4c5c6c(cccc6n4O)COC(=O)C(OC4CC(C)(O)C(N(C)C)C(C)O4)C2OC5)c2nc-3cs2)n1)C(N)=O (centres unmarked),,,"ICR mice, Streptococcus pneumoniae ATCC 49169 infected, immunocompromised, blood","intravenous, 4 mg/kg/day three times daily",,AUC(0-inf),351 ng·h/mL
O=C(Nc1cnccc1-c1ccc([18F])cc1)c1ccnc(NC(=O)C2CC2)c1,,ex vivo gamma counting,"FVB/NJ mice, both sexes, cecum","intravenous, 120 min, together with: tariquidar 15 mg/kg iv",,mean SUV,1.93
O=C(CN1CN(c2ccc(Cl)c(Cl)c2)C2(CCN(C(=O)c3ccc4[nH]ncc4c3)CC2)C1=O)NCC(F)(F)F,"Cytochrome P450 3A4 (CYP3A4, Homo sapiens, UniProt P08684)","enzyme activity, inhibitor",,,,IC50,22 µM
Cc1nc2cccc(OCC(C)(C)C(=O)NC(C)C)c2c(N)c1C(=O)[O-].[Na+],human peripheral blood lymphocytes,,,"250 g/mL, 3 h, without S9",,relative mitotic index,79%
COc1cccc(OC)c1-c1cc(C(=O)NC2(C(=O)O)C3CC4CC(C3)CC2C4)nn1-c1ccc(C(=O)N(C)CCCN(C)C(=O)[C@H](CCCCNC(=O)[C@H](CC(C)C)NC(=O)C2OC2C(=O)O)NC(=O)CN2CCN(CC(=O)[O-])CCN(CC(=O)[O-])CCN(CC(=O)[O-])CC2)cc1C(C)C.[177Lu+3] (mixture of isomers),HT-29 tumour model,,"host not given, bone","7 days, tumour-bearing",,tracer uptake,0.03 %ID/g
N#C[C@@H]1CCCN1C(=O)CNC(=O)c1ccnc2ccc(OCCCN3CCN(C(=O)CCc4ccc(O)c(CN5CCN6CC(=O)[O][Al-]([18F])([O]C(=O)C5)[O]c5ccc(CCC(=O)N7CCN(CCCOc8ccc9nccc(C(=O)NCC(=O)N%10CCC[C@H]%10C#N)c9c8)CC7)cc5C6)c4)CC3)cc12 (some centres unmarked),U-87 MG tumour model,,"host not given, pancreas","1 h, tumour-bearing",,tracer uptake,2.75 %ID/g
CCOc1cc(-c2cc(CN3c4ccccc4C=Cc4ccccc43)on2)ccc1Cl,BJ,cytotoxicity,,,,IC50,> 30 µM
COc1cccc(OC)c1-c1cc(C(=O)NC2(C(=O)O)C3CC4CC(C3)CC2C4)nn1-c1ccc(C(=O)N(C)CCCN(C)CCCN(C)C(=O)[C@H](CCCCNC(=O)[C@H](CC(C)C)NC(=O)C2OC2C(=O)O)NC(=O)CN2CCN(CC(=O)[O-])CCN(CC(=O)[O-])CCN(CC(=O)[O-])CC2)cc1C(C)C.[177Lu+3] (mixture of isomers),HT-29 tumour model,,"host not given, blood","72 h, tumour-bearing",,tracer uptake,0.3 %ID/g
N#C[C@@H]1CC(F)(F)CN1C(=O)CNC(=O)c1ccnc2c(NC(=O)[C@H](CCCCNC(=O)CCOCCOCCOCCOCCOCCOCCNC(=O)CN3CCN(CC(=O)[O-])CCN(CC(=O)[O-])CCN(CC(=O)[O-])CC3)NC(=O)CCCc3ccc(I)cc3)cccc12.[177Lu+3],U-87 MG tumour model,,"host not given, tumour","4 h, tumour-bearing",,tracer uptake,26.8 %ID/g
O=C1NC2(CC2)COc2ncc(F)cc2[C@H]2COCCN2c2ccn3ncc1c3n2,Salmonella typhimurium,Ames test,TA100,"5000 µg/plate, 48 h, together with: rat liver S9",,revertant colonies,62 ± 7 revertants/plate
CNC(=O)C1CCCN(C(=O)C2CC3CCC2N3C(=O)[C@@H]2C[C@@H](O)CN2C(=O)NCc2cccc(Cl)c2F)C1 (mixture of isomers),"Cytochrome P450 2B6 (CYP2B6, Homo sapiens, UniProt P20813)",preincubation with NADPH,human,1.85 µM,relative to: negative control,remaining activity,106% and 97.7% and 103%
N#C[C@@H]1CC(F)(F)CN1C(=O)CNC(=O)c1ccnc2c(NC(=O)[C@@H](N)CCCCNC(=O)CCOCCOCCOCCOCCOCCOCCNC(=O)CN3CCN(CC(=O)[O-])CCN(CC(=O)[O-])CCN(CC(=O)[O-])CC3)cccc12.[177Lu+3],U-87 MG tumour model,,"host not given, pancreas","24 h, tumour-bearing",,tracer uptake,0.04 %ID/g
N#C[C@@H]1CCCN1C(=O)CNC(=O)c1ccnc2ccc(OCCCN3CCN(C(=O)CCc4ccc5c(c4)CN4CCN6CC(=O)[O][68Ga-]([O]C(=O)C4)([O]5)[O]c4ccc(CCC(=O)N5CCN(CCCOc7ccc8nccc(C(=O)NCC(=O)N9CCC[C@H]9C#N)c8c7)CC5)cc4C6)CC3)cc12,U-87 MG tumour model,,"host not given, muscle","2 h, tumour-bearing",,tracer uptake,2.14 %ID/g
O=C(Nc1cnccc1-c1ccc([18F])nc1)c1ccnc(NC(=O)C2CC2)c1,,ex vivo gamma counting,"GSK-3β transgenic mice, early-stage, bladder","intravenous, 120 min, mean, P-gp inhibitor pretreatment, together with: tariquidar 15 mg/kg iv",,SUV,2.75
N#C[C@@H]1CC(F)(F)CN1C(=O)CNC(=O)c1ccnc2c(NC(=O)CCOCCOCCOCCOCCOCCOCCNC(=O)[C@H](CCCCNC(=O)CN3CCN(CC(=O)[O-])CCN(CC(=O)[O-])CCN(CC(=O)[O-])CC3)NC(=O)CCCc3ccc(I)cc3)cccc12.[177Lu+3],U-87 MG tumour model,,"host not given, blood","1 h, tumour-bearing",,tracer uptake,4.99 %ID/g
O=C1C2CC3CC1CC(C(=O)N1CCN(c4ccc([N+](=O)[O-])c5ncccc45)CC1)(C3)C2,Salmonella typhimurium,Ames test,TA1535,"0.78 µg/well, with S9",,mean revertant colonies,3 colonies/well
CCN(CC)CC#CCNc1ccnc2cc(Cl)ccc12,Salmonella typhimurium,mini-Ames test,TA102,"500.0 µg/well, without S9",,revertants per well,71
CN1CCCNC(=O)c2cccc(c2)C(=O)NCCCN(C)CCCNc2cccc3c2C(=O)c2cccc(c2C3=O)NCCC1,HSC-2,"cell growth or viability, CCK-8",,"0.5 µM, 48 h",,viability,72.5%
CC(C)(C)NCC(SS(=O)(=O)O)c1ccccc1 (centres unmarked),Schistosoma mansoni,perfusion day 44,infected Swiss Webster mice,"600 mg/kg single dose, dosed day 15 post-infection",,body weight,33.8 g and 31.2 g and 30.7 g and 34.2 g
COC(=O)Nc1nc2cc(C(O)c3ccc(F)cc3)ccc2[nH]1 (centres unmarked),Salmonella typhimurium,Ames preincubation test,TA100,"437.5 µg/plate, without S9",,revertants,157 revertants/plate
CC(C)(O)c1ncc([S@](N)(=O)=NC(=O)Nc2c3c(cc4c2CCC4)CCC3)s1,,"item: general, administration-site conditions",healthy human,"oral, 100 mg, CT formulation, fed",,subjects with TEAEs,50%

# Repeated from above:
Compound,tested on,test,system,conditions,how to read,quantity,result
CC(C)OCCOCc1ccc(OCC(O)CN(N=O)C(C)C)cc1 (centres unmarked),Salmonella typhimurium,Ames test,TA98,"5 µg/plate, 30 % rat S9",relative to: solvent control,revertant fold increase,0.9 fold
Nc1nc2cc(C(=O)c3ccc(F)cc3)ccc2[nH]1,Salmonella typhimurium,Ames preincubation test,TA98,"312.5 µg per plate, 3 days, without S9",,revertants,18 revertants per plate
